Results pooled from the literature.
Compare with care: the assays were run in different laboratories. ± gives the spread as reported.

Structure (SMILES) = CC(c1ccccc1)(c1ccc(O)cc1)c1ccc(O)cc1; cell line = HepG2 spheroids; test = annexin V-FITC/PI flow cytometry; setting = 0.10 µM, 96 h; measurement = late apoptotic cells; value = 36.3 ± 27.6%
Structure (SMILES) = O=C(Nc1cnccc1Cl)N1CCN(Cc2ccc3c(c2)OC(F)(F)O3)CC1; cell line = COS cells expressing human FAAH; test system = COS cell culture supernatant; setting = 100 nM, 0 h; measurement = concentration; value = 84.4 ± 7.1 nM
Structure (SMILES) = Cc1cc(C)c(C#N)c(SCC(=O)NCc2ccccc2)n1; cell line = MDA-MB-231; test = MTT; setting = 100 µM, 72 h; measurement = viability; value = 64 ± 7%
Structure (SMILES) = Oc1ccc(C2(c3ccc(O)cc3)c3ccccc3-c3ccccc32)cc1; cell line = HepG2 spheroids, dissociated; test = annexin V-FITC/PI flow cytometry; setting = 40 µM, 24 h; measurement = viable cells; value = 58%
Structure (SMILES) = O=c1ccc2ccccc2o1; cell line = NHEK; test = Seahorse; test system = keratinocyte growth medium; setting = concentration not given, 1 h; measurement = oxygen consumption rate, chance of response; value = 60.6%
Structure (SMILES) = CN(C(=O)n1cnc(-c2ccc[n+]([O-])c2)c1)C1CCCCC1; cell line = COS cells expressing human FAAH; test system = cell lysate; setting = 100 nM, 1 h, quantification limit 5 nM; measurement = compound concentration; value = not detected
Structure (SMILES) = COc1cc(CNC(=O)CSc2nc(-c3ccccc3)cc(C(F)(F)F)c2C#N)cc(OC)c1OC; cell line = MDA-MB-231; test = MTT; setting = 100 µM, 72 h; measurement = viability; value = 45 ± 3%
Structure (SMILES) = CC(C)CC(=O)OC[C@H]1O[C@@](C#N)(c2ccc3c(N)ncnn23)[C@H](O)[C@@H]1O; cell line = Caco-2; setting = 9 µM, 2 h, together with: verapamil 100 µM; measurement = efflux ratio; value = 2.09
Structure (SMILES) = Cc1cc(C)c2c(N)c(C(=O)Nc3cccnc3)sc2n1; cell line = MDA-MB-231; test = MTT; setting = 100 µM, 72 h; measurement = viability; value = 55 ± 6%
Structure (SMILES) = O=C(Nc1cccnn1)N1CCC(=Cc2cccc(Oc3ccc(C(F)(F)F)cn3)c2)CC1; cell line = COS cells expressing human FAAH; test system = COS cell culture supernatant; setting = 100 nM, 24 h; measurement = concentration; value = 49.4 ± 2.9 nM

Some of these lines once more:
Structure (SMILES) = Oc1ccc(C2(c3ccc(O)cc3)c3ccccc3-c3ccccc32)cc1; cell line = HepG2 spheroids, dissociated; test = annexin V-FITC/PI flow cytometry; setting = 40 µM, 24 h; measurement = viable cells; value = 58%
Structure (SMILES) = O=c1ccc2ccccc2o1; cell line = NHEK; test = Seahorse; test system = keratinocyte growth medium; setting = concentration not given, 1 h; measurement = oxygen consumption rate, chance of response; value = 60.6%
